Assay results gathered from unrelated publications.
Compare with care: the assays were run in different laboratories. ± marks the error that the study gave.
Cell line: CAKI-1

CCNC(=S)NN=Cc1ccc([N+](=O)[O-])o1  IC50 (cell growth or viability, resazurin): 42500 nM
CC(C)c1ccc(N(C)c2ccc3c(c2)OCC[C@H]3CNc2cnccc2C(=O)O)cc1  IC50 (cell viability, CellTiter-Glo; 7 days): 4.43 nM
CCN(C(=O)c1cc(F)ccc1Oc1nncnc1N1CCC2(C1)CN([C@H](CCCN(C)CCOC)C(C)C)C2)C(C)C  GI50 (cell growth or viability; 72 h): > 10000 nM
CN(C)CCN1CCN(c2ccc3nc(-c4ccc5nc(-c6ccc(C(F)(F)F)cc6)[nH]c5c4)[nH]c3c2)CC1  growth percent (SRB; 10 µM, 48 h): 73.6%
O=C(NCc1cc(F)cc(F)c1)[C@@]1(O)CCN(c2ccc3[nH]ccc3c2)C1=O  IC50 (cell growth or viability): 170 nM
CNC(=S)NN=Cc1ccc([N+](=O)[O-])o1  IC50 (cell growth or viability, resazurin): 22500 nM
O=C(Nc1nnc2c1c(-c1ccc(Cl)cc1)nc1sc(=Cc3ccco3)c(=O)n12)c1ccccc1 (mixture of isomers)  cell growth (SRB; 10 µM, NCI60 single-dose screen; reference: untreated): 42.2%
CNC(NN=Cc1ccc([N+](=O)[O-])o1)=[S+][Au-][Cl]  cell fraction ANV+/PI− (annexin V/PI flow cytometry; 5 µM, 72 h): 9.9 ± 2.1%
C1=[N+]2CCCC[N+]3=Cc4ccc5[n]4[Au-]23[n]2c1ccc2-c1nc2ccccc2nc1-5.F[P-](F)(F)(F)(F)F  TGI (NCI60 five-dose screen): 4 -log M
CCCC(CCC)C(=O)OCc1cn(-c2cc3ccccc3oc2=O)nn1  growth percentage (NCI60 single-dose screen; 10 µM): 97.7%
Cc1ccc([N+](=O)[O-])cc1S(=O)(=O)N(C)/N=C/c1cnc2ccc(Br)cn12  IC50 (MTS; NCI60 panel): 350 nM
CNS(=O)(=O)Nc1nccc(Cc2c(C)c3ccc(Oc4ncccc4F)cc3oc2=O)c1F  IC50 (cell viability; 7 days): > 1000 nM
Cn1ncc(-c2ccc3c(=O)[nH]nc(CN)c3c2)c1-c1c(F)c(Cl)cc(OC2CC2)c1C#N  IC50 (cell viability, inhibitor, CellTiter-Glo; 120 h, baseline-subtracted): 1530 nM

Some of these lines once more:
CCN(C(=O)c1cc(F)ccc1Oc1nncnc1N1CCC2(C1)CN([C@H](CCCN(C)CCOC)C(C)C)C2)C(C)C  GI50 (cell growth or viability; 72 h): > 10000 nM
